Assay results from different studies.
Every numbered part comes from another study and shows a few of its results, in no order. Values joined by “and” are separate records of one study, mostly repeats; a detail may differ.
Sequence of UniProt Q14289 (whole entry, looked up): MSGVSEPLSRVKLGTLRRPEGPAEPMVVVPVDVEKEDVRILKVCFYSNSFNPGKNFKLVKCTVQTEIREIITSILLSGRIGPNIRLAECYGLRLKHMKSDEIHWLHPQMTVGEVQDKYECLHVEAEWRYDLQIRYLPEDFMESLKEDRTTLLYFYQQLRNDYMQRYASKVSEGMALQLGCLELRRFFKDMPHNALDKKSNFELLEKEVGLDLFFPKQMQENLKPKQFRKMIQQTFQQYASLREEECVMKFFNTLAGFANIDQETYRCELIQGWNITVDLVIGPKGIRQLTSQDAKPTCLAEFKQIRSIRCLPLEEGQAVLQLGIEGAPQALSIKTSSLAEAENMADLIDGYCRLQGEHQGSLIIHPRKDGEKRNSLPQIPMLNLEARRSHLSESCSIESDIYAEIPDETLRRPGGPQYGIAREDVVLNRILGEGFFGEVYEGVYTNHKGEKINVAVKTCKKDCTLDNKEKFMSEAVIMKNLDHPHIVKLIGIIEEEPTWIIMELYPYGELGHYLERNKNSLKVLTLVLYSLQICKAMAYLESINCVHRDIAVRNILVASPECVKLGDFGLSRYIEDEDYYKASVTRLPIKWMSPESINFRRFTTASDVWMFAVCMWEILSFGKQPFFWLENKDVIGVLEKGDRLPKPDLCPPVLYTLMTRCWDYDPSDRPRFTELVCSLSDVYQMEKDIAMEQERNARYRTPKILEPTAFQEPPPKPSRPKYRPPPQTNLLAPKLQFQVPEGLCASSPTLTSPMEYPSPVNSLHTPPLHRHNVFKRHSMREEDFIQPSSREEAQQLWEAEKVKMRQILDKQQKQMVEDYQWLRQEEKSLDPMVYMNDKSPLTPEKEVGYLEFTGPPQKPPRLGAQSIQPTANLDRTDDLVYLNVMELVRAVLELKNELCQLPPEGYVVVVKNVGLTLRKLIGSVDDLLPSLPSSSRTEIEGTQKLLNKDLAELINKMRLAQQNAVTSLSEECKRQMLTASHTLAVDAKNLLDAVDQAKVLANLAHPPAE
Sequence of UniProt P51817 (whole entry, looked up): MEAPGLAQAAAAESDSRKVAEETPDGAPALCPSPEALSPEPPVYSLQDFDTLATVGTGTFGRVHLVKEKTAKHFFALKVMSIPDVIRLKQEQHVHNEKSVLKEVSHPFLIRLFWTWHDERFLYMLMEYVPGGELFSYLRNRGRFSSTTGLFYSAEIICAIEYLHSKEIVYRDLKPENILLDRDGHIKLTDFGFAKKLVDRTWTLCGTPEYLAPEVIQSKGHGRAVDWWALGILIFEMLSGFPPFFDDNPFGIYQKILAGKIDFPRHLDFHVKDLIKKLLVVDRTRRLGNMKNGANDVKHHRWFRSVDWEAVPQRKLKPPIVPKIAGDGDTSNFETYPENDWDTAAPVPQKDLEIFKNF
Sequence of UniProt Q00526 (whole entry, looked up): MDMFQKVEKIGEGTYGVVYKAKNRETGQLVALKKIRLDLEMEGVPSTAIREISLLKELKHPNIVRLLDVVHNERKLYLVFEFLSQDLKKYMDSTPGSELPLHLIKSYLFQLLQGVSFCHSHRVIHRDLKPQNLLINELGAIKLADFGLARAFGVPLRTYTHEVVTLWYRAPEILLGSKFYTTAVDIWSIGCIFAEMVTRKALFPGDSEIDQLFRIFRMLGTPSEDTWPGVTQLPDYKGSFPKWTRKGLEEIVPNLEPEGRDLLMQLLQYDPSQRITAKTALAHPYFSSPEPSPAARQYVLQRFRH
Sequence of UniProt Q08881 (whole entry, looked up): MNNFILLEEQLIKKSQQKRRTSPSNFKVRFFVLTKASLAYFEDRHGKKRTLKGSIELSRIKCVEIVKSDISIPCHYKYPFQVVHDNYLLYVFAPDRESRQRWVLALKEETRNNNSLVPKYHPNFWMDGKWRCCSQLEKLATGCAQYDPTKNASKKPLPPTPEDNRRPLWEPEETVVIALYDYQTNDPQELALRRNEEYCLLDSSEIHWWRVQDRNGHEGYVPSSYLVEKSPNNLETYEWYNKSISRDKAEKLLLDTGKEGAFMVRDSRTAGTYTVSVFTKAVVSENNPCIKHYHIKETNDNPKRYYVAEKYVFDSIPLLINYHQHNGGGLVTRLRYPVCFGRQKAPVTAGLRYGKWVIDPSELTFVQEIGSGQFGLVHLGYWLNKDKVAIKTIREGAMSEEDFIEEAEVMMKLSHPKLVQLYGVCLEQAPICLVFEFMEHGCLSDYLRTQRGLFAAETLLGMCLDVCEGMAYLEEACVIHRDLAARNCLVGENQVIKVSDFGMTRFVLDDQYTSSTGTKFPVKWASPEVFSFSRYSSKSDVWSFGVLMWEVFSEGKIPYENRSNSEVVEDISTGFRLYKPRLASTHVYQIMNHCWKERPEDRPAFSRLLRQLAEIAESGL
Sequence of UniProt Q86Z02 (whole entry, looked up): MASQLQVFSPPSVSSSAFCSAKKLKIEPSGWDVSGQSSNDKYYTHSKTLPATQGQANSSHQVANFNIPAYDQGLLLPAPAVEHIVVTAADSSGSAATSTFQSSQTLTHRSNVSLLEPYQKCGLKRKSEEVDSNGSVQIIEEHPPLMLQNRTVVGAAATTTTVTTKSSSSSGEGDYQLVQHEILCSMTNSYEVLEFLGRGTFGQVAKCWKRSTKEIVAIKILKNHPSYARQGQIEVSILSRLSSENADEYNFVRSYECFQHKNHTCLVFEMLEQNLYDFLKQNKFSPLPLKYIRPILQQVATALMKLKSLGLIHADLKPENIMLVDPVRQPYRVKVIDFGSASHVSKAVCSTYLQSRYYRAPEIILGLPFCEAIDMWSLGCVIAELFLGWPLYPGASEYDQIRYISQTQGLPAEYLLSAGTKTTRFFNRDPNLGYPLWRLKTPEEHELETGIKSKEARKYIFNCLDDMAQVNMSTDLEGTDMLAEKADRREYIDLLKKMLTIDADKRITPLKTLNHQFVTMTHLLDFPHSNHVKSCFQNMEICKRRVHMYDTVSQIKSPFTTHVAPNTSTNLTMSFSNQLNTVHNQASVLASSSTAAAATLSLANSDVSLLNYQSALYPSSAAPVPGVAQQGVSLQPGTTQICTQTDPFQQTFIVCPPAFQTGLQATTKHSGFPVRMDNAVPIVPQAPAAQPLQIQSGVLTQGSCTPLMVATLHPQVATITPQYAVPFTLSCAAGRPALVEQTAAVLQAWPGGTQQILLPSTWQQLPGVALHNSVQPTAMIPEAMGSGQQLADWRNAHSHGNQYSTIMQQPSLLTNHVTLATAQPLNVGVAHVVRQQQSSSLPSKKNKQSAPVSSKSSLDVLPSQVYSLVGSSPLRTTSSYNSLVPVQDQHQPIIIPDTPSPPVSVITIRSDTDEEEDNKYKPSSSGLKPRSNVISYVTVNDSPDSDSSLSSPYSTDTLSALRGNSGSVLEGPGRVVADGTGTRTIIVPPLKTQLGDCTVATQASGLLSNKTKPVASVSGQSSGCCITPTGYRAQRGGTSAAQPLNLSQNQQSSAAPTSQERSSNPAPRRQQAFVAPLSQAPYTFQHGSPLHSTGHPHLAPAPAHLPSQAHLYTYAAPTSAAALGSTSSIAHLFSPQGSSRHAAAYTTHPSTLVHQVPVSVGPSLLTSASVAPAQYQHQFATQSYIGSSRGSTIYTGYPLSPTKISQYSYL
Sequence of UniProt P27448 (whole entry, looked up): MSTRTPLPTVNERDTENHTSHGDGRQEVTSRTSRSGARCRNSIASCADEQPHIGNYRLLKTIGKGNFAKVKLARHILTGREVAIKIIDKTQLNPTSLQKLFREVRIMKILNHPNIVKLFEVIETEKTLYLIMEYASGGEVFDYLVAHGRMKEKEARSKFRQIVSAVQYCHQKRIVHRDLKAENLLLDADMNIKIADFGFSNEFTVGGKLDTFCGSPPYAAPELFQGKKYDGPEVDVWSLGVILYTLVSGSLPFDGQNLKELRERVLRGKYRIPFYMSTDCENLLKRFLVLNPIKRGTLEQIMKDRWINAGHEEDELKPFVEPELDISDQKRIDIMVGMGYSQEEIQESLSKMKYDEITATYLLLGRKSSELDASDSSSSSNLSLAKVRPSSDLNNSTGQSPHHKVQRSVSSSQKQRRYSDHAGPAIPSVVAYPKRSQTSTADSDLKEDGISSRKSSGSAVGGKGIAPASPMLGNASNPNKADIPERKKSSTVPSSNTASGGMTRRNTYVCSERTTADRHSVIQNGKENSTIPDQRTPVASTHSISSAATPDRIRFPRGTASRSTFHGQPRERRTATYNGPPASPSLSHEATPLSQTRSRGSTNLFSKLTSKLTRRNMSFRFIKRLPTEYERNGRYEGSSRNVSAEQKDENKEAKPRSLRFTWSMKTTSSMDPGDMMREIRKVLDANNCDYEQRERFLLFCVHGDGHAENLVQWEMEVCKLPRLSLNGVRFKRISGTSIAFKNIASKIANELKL
Sequence of UniProt P16591 (whole entry, looked up): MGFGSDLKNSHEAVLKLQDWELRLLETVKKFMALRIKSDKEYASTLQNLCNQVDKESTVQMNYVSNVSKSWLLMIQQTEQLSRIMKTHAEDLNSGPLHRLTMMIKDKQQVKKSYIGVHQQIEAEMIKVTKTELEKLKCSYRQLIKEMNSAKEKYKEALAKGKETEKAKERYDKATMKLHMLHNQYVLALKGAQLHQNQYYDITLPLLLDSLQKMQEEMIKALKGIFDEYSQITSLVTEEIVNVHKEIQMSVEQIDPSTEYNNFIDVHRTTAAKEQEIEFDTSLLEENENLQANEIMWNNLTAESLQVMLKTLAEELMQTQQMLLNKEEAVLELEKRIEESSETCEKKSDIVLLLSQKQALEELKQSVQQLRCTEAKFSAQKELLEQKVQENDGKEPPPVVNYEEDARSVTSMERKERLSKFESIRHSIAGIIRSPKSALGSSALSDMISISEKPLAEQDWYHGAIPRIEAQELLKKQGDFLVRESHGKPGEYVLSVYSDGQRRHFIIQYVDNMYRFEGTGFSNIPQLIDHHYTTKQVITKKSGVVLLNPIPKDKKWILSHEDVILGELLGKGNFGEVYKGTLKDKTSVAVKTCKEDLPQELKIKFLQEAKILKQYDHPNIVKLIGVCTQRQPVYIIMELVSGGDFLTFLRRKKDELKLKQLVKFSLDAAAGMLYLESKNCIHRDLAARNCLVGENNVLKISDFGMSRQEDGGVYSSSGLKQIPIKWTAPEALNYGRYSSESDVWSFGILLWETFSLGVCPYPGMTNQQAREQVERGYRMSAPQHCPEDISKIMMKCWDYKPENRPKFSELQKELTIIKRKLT

Block 1 — organism: Leishmania donovani; strain: DD8; sample: promastigotes; measurement: promastigote number
Compound: C[C@@H]1[C@H](O)[C@@H](C)/C=C/C=C/C=C/C=C/C=C/C=C/C=C/[C@H](O[C@@H]2O[C@H](C)[C@@H](O)[C@H](N)[C@@H]2O)C[C@@H]2O[C@](O)(C[C@@H](O)C[C@@H](O)[C@H](O)CC[C@@H](O)C[C@@H](O)CC(=O)O[C@H]1C)C[C@H](O)[C@H]2C(=O)O
concentration = 6660 µM; time = 72 h; value = 1260 and 1570
concentration = 60 µM; time = 24 h; value = 2.04e+06 and 2.06e+06
concentration = 30 µM; time = 48 h; value = 4.33e+06 and 4.35e+06
concentration = 1660 µM; time = 48 h; value = 101000 and 151000
concentration = 3330 µM; time = 48 h; value = 51500
concentration = 160 µM; time = 24 h; value = 1.06e+06 and 1.05e+06

Block 2 — read-out: enzyme activity; action: inhibitor; concentration: 0.5 µM; baseline: control; measurement: remaining activity
Structure (SMILES): COc1cc2ncnc(Nc3ccc(OCc4ccccc4)cc3)c2cc1OC
target = FLT4 (Homo sapiens, UniProt P35916); value = 98.9%
target = HIPK1 (Homo sapiens, UniProt Q86Z02); value = 104%
target = MATK (Homo sapiens, UniProt P42679); value = 97.5%
target = PRKX (Homo sapiens, UniProt P51817); value = 105%
target = CDC42BPA (Homo sapiens, UniProt Q5VT25); value = 101%
target = STK25 (Homo sapiens, UniProt O00506); value = 93.4%
target = FGR (Homo sapiens, UniProt P09769); value = 72.2%
target = AKT1 (Homo sapiens, UniProt P31749); value = 103%
target = FYN (Homo sapiens, UniProt P06241); value = 86.3%
target = MARK3 (Homo sapiens, UniProt P27448); value = 106%
target = ITK (Homo sapiens, UniProt Q08881); value = 96.2%
target = FER (Homo sapiens, UniProt P16591); value = 90.8%
target = ALK (Homo sapiens, UniProt Q9UM73); value = 103%
target = TAOK3 (Homo sapiens, UniProt Q9H2K8); value = 91.7%
target = Cyclin-dependent kinase 3, with cyclin E (CDK3, Homo sapiens, UniProt Q00526); value = 96.3%
target = NEK11 (Homo sapiens, UniProt Q8NG66); value = 90.4%
target = PKN1 (Homo sapiens, UniProt Q16512); value = 101%
target = Insulin receptor (INSR, Homo sapiens, UniProt P06213); value = 100%
target = LIM domain kinase 1 (LIMK1, Homo sapiens, UniProt P53667); value = 95.4%
target = SRC (Homo sapiens, UniProt P12931); value = 102%
target = NLK (Homo sapiens, UniProt Q9UBE8); value = 96.5%
target = PASK (Homo sapiens, UniProt Q96RG2); value = 98.6%

Block 3 — species: mouse; sample: microsomes or S9; concentration: 2 µM; time: 0.5 h; measurement: remaining compound
Compound = c1ccc(-c2nc3cccnc3nc2N2CCCCC2)cc1; value = < 1%
Compound = COc1ccc(-n2ccc3cc(N4CCCCC4)ccc32)cc1Cl; value = 0.0659%
Compound = Cc1cc(=O)n(CCNC(=O)c2nc3nc(C)cc(C)n3n2)cn1; value = 97.7%
Compound = COc1cc(CNC(C)(C)C)cc(Br)c1OCc1cccs1; value = 3.23%
Compound = O=S(=O)(c1ccccc1)N(CC(O)COc1cc(Cl)ccc1Cl)c1nccs1 (stereo not drawn); value = 3.2%
Compound = CCc1nnc(S(=O)(=O)C(C)C(=O)NCC2CCCCC2)[nH]1 (stereo not drawn); value = > 100%
Compound = CN(C[C@@H]1C[C@H](F)CN1Cc1cncnc1)c1cnc(C#N)cn1; value = > 100%
Compound = COc1cc(NC(=O)N2CCC(Cn3cncn3)CC2)ncn1; value = > 100%
Compound = CCC(CC)C(=O)Nc1c2c(nc3c1CCC3)CCCC2; value = 26.8%
Compound = CC(C)(C)CCNc1ccc(CNS(C)(=O)=O)cc1; value = 13.5%
Compound = Cc1cc(C[C@@H]2COC[C@@H]2NC(=O)c2cc(=O)n(-c3ccccc3)[nH]2)on1; value = 65.7%
Compound = O=c1c(C(c2ccncc2)c2c(O)nc3n(c2=O)CCCS3)c(O)nc2n1CCCS2; value = 90.8%

Block 4 — sample: plasma; measurement: Cmax
Structure (SMILES): O=C1CCC(N2Cc3cc(C4CCN(Cc5ccccc5)CC4)ccc3C2=O)C(=O)N1 (stereo not drawn)
species = ICR mouse, male; route = intravenous; dose = 1.0 mg/kg; value = 184 ng/mL
species = Sprague Dawley rat, male; route = oral; dose = 3.0 mg/kg; value = 74.4 ng/mL
species = Sprague Dawley rat, male; route = intravenous; dose = 1.0 mg/kg; value = 96.6 ng/mL
species = male ICR mice; route = oral; dose = 3.0 mg/kg; value = 283 ng/mL
species = male ICR mice; route = intravenous; dose = 1.0 mg/kg; value = 237 ng/mL and 191 ng/mL

Mixed results
Structure (SMILES) = CN(c1ccnc(CNc2nc(Nc3ccc4c(c3)CC(=O)N4)ncc2C(F)(F)F)n1)S(C)(=O)=O; target = PTK2B (Homo sapiens, UniProt Q14289); assay = target engagement, NanoBRET; system = live cells; measurement = EC50; value = 24.8 µM and 53.7 µM and 31.7 µM
Structure (SMILES) = COc1ccc2c(c1)O[C@H](c1ccc(OC)c(OC)c1)C[C@@H]2NC(=O)C1(c2ccc3c(c2)OC(F)(F)O3)CC1 (single isomer, unassigned); target = ABL1 (Homo sapiens, UniProt P00519, E255K); assay = KINOMEscan; conditions = 1 µM, E255K mutant, phosphorylated; how to read = baseline: control; measurement = remaining binding; value = 80%
Structure (SMILES) = Cc1c(NC(=O)c2cc(C(N)=O)nc3cc(F)ccc23)c(C(F)(F)F)nn1Cc1ccc(C(C)(C)C)cc1; target = HTR2B (Homo sapiens, UniProt P41595); assay = binding, radioligand binding; conditions = 10 µM; measurement = inhibition; value = -8.78%

Excerpt of the above (block 2):
target = AKT1 (Homo sapiens, UniProt P31749); value = 103%
target = FGR (Homo sapiens, UniProt P09769); value = 72.2%
target = NEK11 (Homo sapiens, UniProt Q8NG66); value = 90.4%
